Published values from different studies.
Numbered parts are unrelated; each lists some results of a single study. Substitutions count along the parent as printed.

Sample 1
Target: CCNE1, cyclin fold, Cln2 fusion (human)
Method: yeast growth competition, sequencing
Sample: yeast
Notes: strong parent motif
Reference: not given
Reading: higher = stronger binding
Parent: RBL2 docking peptide (human); STTRRRLFVENDS; partner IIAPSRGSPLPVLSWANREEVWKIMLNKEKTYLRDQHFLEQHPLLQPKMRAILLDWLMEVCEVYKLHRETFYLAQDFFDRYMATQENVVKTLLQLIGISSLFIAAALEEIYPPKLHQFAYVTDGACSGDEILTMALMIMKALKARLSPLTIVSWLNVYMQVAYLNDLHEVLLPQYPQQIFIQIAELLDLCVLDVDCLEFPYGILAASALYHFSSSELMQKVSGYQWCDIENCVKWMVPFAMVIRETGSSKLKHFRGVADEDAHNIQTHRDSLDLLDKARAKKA
Under “normalised enrichment score”, `STTRRRNFVENDS [L7N]` is recorded as -1.14.
For `STTRRRLFVFNDS [E10F]`, “normalised enrichment score” read 2.83.
`STTRRRLSVENDS [F8S]` — result for “normalised enrichment score”: -0.373.
`STTIRRLFVENDS [R4I]` — result for “normalised enrichment score”: 4.86.
`STTRWRLFVENDS [R5W]` — result for “normalised enrichment score”: 0.44.

Sample 2
Target: Interferon regulatory factor 3, full length, phosphomimetic (IRF3, Homo sapiens, UniProt Q14653, residues 1-427, S386D/S396D/S398D/S402D/T404D/S405D)
UniProt Q14653, sequence (whole entry, unmodified, looked up): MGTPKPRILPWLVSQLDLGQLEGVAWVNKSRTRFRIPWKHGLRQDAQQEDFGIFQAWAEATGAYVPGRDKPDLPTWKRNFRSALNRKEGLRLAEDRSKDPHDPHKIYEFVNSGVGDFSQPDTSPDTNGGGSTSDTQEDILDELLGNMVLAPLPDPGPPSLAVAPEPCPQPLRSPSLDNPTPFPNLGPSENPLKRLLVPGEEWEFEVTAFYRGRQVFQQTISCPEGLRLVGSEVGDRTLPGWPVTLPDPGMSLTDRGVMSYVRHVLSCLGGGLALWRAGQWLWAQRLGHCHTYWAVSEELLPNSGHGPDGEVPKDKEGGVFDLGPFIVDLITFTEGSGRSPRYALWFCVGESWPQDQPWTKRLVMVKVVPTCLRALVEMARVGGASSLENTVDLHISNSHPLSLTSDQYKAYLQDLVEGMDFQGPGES
Method: protein-binding microarray
Form: double-stranded DNA, one strand shown
Sample: in vitro
Concentration: 2540 nM top
Notes: 60-bp whole probe
With: salmon DNA 0.4 mg/ml
Reference: random background probes
Reading: higher = stronger binding
All sequences stand within: GCCTAGCAC … GTCTTGATTCGCTTGACGCTGCTG
Under “fitted relative affinity”, `CTTTCTTTATGCACTCTCTACGTGCTA` is recorded as 4.96 z-score.
For `GACGGTTTCGACTTTCCGGACGTGCTA`, “fitted relative affinity” read 4.57 z-score.
`AACGGACTGCTTATCCTGACGTGCTAG`: “fitted relative affinity” -0.149 z-score.
`GACGATTTAAGACTGGAGACGTGCTAG`: “fitted relative affinity” 0.425 z-score.
Under “fitted relative affinity”, `ATGCCTTTCTCTTGGAGCTTGTGCTAG` is recorded as 4.57 z-score.
`GACGGTTTCCTATTGCTGACGTGCTAG` — result for “fitted relative affinity”: 6.02 z-score.
`GACGGTATCGGACAGGGGACGTGCTAG` — result for “fitted relative affinity”: 0.746 z-score.
`GACCATTTCAGTCTCGAGACGTGCTAG`: “fitted relative affinity” 2.68 z-score.
`TTAGGACTGCTTAACCTTTAGTGCTAG` — result for “fitted relative affinity”: -0.346 z-score.
`TCATGTTTGGTTCTTATACTGTGCTAG`: “fitted relative affinity” 0.784 z-score.
`GACGGTTTCGGTTCCGGGCCGTGCTAG`: “fitted relative affinity” 9.57 z-score.
`TTAGGACTGGGACGGGGTTAGTGCTAG`: “fitted relative affinity” -0.702 z-score.
For `GCCGATATCGGGTTTCGAGACGTGCTA`, “fitted relative affinity” read 1.59 z-score.
For `GACGATTTCAGAATGGAGACGTGCTAG`, “fitted relative affinity” read 1.94 z-score.
Under “fitted relative affinity”, `TTAGGAATGCTTATCCTTTAGTGCTAG` is recorded as 0.126 z-score.
`TTAGATTCCATTTTCGATTAGTGCTAG` — result for “fitted relative affinity”: 6.38 z-score.

Sample 3
Target: RING finger protein unkempt homolog, zinc fingers 1-6, GST-SBP tag (UNK, Homo sapiens, UniProt Q9C0B0, residues 30-357)
UniProt Q9C0B0, sequence (30-357, looked up): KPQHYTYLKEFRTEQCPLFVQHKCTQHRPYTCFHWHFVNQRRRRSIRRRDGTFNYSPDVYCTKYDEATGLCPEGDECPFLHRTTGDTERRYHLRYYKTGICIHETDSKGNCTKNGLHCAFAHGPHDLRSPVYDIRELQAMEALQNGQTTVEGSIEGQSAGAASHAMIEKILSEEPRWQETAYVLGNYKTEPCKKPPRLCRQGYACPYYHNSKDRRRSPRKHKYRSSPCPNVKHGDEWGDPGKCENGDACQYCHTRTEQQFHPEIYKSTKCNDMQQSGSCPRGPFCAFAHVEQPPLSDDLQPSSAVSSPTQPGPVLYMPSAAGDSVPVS
Method: RNA Bind-n-Seq
Form: RNA
Sample: in vitro
Concentration: not given
Notes: RNA with constant flanks, human and mouse sites, ends assumed
Reference: input RNA pool
Reading: higher = stronger binding
`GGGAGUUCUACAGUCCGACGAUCGAGGACCCAAGGUUGAUUCUCAUCACUUUUUUAAAUACUCCGAUUGCGGCCAAUCUGCCAAUAGGAUUCUUAGAGCUCACCCCGCUCGUUGGAUUGAUCCGCUGGUGCGUGAAGGCACCCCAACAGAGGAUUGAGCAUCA` gave a bound/input enrichment of 0.435 ratio.
For `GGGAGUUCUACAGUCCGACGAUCCCUGCCUAAGGCAAAGAAAUAUAAGACAAGACUAUGAUAUCAAUGAAUGUGGGUUAAGUAAUAGAUUUCCAGCUAAAUUGGUCUAAAAAAGAAUAUUAAGUGUGGACAGACCUAUUUCAACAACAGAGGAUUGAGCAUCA`, the bound/input enrichment was 0.25 ratio.
`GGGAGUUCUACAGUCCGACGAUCAUCAAUCAAGCGGCCCUUCUCAGCAUUCCUGGCUUUGUUGAGCGGCUUUGCAAACUGGCGACUCGAAAGGUGUCAGAGUCAACGGGCACAGCCAGCUUCCUUCAGGAGUUGGAAGAGUGGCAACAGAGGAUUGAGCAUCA` gave a bound/input enrichment of 0.123 ratio.
The bound/input enrichment of `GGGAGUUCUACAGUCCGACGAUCAGGCAUACUCGUCCUCAGGUGUCAUCUGUACGGUUGAUGGAGAGGUCGAUUCACAGCGCAAGAUACAUUUUUGUAGAAAACCUGUAUAGAAGUGGGAAGAUGCCAGAAGUGGACUAUGUACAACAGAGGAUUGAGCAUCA` is reported as 1.04 ratio.
With `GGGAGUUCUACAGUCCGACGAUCAUUGACGAGAUAGCAAGCAACCUUCAGAGCAAAAUUAACCAAACCAAACAGCAGGAAGAUGCAGUGAUCAAUGUUGAGGAUGAUGAAGAGGAAGAGGAAGACAACGAAGUCGAGAUAGAGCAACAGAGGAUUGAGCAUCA` the bound/input enrichment was 0.527 ratio.
`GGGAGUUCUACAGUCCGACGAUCACUAACAGGCCAUUUAUUUCUCAGAAAAUCCAUUUUCCUGAUUUUUCUACCAGAGACAUACAUAGGAAUUAUGUUGAUUGUGUGCGAUGGUUAGGCGAUUUGAUACUUUCUAAGAGUGGCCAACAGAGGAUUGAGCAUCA` gave a bound/input enrichment of 0.251 ratio.
For `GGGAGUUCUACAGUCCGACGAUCGACAAAGAGGUCCUCACAGAGGACAAGUGCCUCCAGCGCCAGAACCGUUAUGACGGGCAAGUGGCUGUGUUUGGCUCAGACCUGCAAGAGAAGCUGGGCAAGCAGAAGUAUUUCCUGGUGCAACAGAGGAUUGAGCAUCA`, the bound/input enrichment was 0.0761 ratio.
The bound/input enrichment of `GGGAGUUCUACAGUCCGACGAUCCCCUCCCACCUCUUCCUGUGCAACAAAAUCAGAUACCUGGACUUGUCCUAUAACGACAUCCGCUUCAUCCCGCCCGAAAUCGGAGUUCUGCAAAGUUUACAGUAUUUUUCCAUCACUUGUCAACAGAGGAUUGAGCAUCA` is reported as 0.312 ratio.
With `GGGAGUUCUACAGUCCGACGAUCGAUUAUGUGCCUGCCUUAAAAGGUUUGGGUGAGUGCCACCUGUUGCUGGGGAAGGUGGCCUUAGUGGAUUUUCUGGAUGGAAAAGCUGUGGACUAUGUGGAACAAGCGCUGGGAUAUUUCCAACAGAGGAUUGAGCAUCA` the bound/input enrichment was 0.947 ratio.
With `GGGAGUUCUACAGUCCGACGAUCUAUGAUCAAGUUCUCGUGGAGUCAGACAAUGAGAACCGAAUGGAGGAAAGCAAGGCUCUCUUUAGAACAAUUAUCACAUACCCCUGGUUCCAGAACUCCUCGGUUAUUCUGUUCUUAAACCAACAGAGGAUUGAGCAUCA` the bound/input enrichment was 2.11 ratio.
For `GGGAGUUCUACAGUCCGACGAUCAGUGCCUAUGAUUAUACAAUAUCACCCAUGGAGAAAGCCAUCGUGAAGACAGACAUUCAGAUAGCUGUCCCUUCUGGGUGCUAUGGAAGAGUAGCUCCACGUUCUGGCUUGGCUGUAAAGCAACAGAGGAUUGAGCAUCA`, the bound/input enrichment was 0.103 ratio.

Sample 4
Molecule: PhoQ, residues 284 288 289 292 302 303 AGGCYF
Method: Sort-seq
Measured: YFP reporter
Sample: E. coli
Notes: PhoQ-PhoP variant library
With: 10 µM Mg2+
Reference: high Mg2+ state
Reading: higher = stronger signaling
For PhoP, residues 12 14 15 18 19 HHYTI (Escherichia coli, UniProt P23836): fold induction read 3.71.
PhoP, residues 12 14 15 18 19 AYFRS (Escherichia coli, UniProt P23836) — fold induction: 16.
PhoP, residues 12 14 15 18 19 SFCSL (Escherichia coli, UniProt P23836) — fold induction: 18.2.

A few entries again (sample 2):
`TTAGGACTGGGACGGGGTTAGTGCTAG`: “fitted relative affinity” -0.702 z-score.
Under “fitted relative affinity”, `TTAGGAATGCTTATCCTTTAGTGCTAG` is recorded as 0.126 z-score.
